# Measured values pooled from the literature.
# Chains of the proteins cited; added tags and fusions are not shown. Lines headed by an entry give the natural chain unless they say otherwise; changes in a name come on top.
# UniProt Q02294, whole entry, looked up: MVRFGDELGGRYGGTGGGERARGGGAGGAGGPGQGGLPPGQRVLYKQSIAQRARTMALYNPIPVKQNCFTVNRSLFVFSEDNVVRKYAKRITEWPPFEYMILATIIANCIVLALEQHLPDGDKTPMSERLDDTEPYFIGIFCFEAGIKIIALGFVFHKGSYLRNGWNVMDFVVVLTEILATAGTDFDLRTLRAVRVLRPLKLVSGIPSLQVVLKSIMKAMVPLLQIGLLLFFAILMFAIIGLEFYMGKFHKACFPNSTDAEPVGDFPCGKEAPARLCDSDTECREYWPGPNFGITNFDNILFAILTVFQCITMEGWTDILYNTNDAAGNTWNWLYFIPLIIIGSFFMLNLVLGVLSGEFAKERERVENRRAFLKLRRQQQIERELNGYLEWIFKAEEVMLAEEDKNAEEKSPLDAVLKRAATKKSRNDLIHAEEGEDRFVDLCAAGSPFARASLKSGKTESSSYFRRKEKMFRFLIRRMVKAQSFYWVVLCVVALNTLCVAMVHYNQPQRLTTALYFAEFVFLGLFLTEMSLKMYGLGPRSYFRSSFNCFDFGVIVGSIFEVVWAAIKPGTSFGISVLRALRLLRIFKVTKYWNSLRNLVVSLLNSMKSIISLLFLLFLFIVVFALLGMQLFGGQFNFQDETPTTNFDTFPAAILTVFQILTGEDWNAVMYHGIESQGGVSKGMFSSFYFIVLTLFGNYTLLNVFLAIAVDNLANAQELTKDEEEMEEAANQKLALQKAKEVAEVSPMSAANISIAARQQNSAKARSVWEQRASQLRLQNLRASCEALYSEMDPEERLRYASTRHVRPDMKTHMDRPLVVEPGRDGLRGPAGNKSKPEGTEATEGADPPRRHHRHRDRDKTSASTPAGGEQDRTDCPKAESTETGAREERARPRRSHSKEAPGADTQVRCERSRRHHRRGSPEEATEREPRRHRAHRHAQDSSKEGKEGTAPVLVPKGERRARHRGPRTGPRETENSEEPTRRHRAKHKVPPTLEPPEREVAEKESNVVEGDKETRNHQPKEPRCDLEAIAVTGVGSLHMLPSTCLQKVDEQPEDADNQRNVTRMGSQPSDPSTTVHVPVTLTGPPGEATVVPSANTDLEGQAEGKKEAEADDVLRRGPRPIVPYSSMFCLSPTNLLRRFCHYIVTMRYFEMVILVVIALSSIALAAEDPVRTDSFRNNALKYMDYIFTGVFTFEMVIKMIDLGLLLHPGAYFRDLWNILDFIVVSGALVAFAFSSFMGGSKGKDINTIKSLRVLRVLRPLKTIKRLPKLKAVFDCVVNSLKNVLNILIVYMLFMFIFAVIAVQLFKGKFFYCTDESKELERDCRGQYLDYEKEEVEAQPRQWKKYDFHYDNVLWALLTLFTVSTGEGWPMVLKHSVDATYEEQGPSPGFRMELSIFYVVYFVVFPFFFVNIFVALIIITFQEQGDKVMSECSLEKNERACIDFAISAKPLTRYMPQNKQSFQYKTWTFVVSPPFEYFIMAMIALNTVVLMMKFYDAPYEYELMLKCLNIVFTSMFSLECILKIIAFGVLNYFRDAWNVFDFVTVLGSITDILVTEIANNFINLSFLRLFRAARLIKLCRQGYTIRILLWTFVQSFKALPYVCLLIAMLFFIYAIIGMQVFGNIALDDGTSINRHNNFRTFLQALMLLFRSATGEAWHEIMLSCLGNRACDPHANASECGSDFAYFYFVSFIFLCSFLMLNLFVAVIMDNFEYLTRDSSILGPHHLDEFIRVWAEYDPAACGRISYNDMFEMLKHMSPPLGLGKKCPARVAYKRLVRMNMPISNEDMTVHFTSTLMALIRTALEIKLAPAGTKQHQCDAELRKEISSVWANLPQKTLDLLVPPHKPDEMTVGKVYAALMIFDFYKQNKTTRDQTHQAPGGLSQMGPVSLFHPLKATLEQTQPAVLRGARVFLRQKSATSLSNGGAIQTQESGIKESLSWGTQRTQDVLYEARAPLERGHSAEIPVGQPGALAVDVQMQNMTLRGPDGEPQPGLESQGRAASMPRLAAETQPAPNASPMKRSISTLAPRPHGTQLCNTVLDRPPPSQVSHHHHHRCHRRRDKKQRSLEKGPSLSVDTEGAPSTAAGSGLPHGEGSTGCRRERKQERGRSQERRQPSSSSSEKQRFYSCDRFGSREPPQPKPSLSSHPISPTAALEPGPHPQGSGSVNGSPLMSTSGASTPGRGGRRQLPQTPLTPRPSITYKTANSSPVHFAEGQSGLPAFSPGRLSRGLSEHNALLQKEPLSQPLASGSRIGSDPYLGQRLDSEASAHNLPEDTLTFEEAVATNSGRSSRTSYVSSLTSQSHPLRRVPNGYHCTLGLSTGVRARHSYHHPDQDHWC
# UniProt P02716, whole entry, looked up: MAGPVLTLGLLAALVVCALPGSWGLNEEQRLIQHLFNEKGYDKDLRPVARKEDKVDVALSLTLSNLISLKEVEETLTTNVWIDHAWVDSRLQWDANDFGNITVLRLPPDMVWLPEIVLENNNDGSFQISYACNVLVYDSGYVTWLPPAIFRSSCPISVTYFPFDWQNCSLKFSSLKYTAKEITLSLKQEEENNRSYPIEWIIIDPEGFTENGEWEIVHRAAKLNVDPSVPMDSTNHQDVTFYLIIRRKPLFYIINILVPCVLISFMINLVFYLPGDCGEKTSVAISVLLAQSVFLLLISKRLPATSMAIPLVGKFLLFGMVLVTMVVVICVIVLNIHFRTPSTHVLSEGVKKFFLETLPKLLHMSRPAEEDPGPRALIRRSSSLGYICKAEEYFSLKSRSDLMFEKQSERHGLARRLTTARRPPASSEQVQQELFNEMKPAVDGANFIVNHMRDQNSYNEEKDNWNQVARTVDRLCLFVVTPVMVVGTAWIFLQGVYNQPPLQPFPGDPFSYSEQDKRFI
# UniProt P04756, whole entry, looked up: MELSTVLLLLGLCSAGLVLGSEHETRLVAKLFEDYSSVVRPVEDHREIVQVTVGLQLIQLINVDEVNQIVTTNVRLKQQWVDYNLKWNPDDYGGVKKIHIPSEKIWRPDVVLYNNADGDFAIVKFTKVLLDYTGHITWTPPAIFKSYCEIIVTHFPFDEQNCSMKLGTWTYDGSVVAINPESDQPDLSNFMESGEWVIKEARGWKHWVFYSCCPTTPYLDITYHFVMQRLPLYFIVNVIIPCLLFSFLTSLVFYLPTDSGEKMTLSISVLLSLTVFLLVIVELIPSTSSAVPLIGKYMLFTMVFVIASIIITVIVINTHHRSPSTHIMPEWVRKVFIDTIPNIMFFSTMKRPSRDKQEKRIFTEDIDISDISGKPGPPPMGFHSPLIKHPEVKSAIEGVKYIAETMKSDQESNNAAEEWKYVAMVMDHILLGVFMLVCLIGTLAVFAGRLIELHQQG
# UniProt P09690, whole entry, looked up: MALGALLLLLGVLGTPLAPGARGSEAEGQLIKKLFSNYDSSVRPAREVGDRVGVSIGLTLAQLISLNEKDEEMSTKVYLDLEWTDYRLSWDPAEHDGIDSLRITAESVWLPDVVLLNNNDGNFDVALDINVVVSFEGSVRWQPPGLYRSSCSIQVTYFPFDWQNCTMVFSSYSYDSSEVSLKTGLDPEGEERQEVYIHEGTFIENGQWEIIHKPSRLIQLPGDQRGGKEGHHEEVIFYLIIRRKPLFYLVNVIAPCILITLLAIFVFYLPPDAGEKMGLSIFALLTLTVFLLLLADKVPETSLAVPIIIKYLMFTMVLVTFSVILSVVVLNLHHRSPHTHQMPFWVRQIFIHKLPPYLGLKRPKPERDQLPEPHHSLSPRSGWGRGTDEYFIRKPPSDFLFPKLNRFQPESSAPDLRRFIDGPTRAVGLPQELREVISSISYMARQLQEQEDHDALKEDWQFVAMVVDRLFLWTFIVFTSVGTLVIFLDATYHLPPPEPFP
# UniProt P20782, whole entry, looked up: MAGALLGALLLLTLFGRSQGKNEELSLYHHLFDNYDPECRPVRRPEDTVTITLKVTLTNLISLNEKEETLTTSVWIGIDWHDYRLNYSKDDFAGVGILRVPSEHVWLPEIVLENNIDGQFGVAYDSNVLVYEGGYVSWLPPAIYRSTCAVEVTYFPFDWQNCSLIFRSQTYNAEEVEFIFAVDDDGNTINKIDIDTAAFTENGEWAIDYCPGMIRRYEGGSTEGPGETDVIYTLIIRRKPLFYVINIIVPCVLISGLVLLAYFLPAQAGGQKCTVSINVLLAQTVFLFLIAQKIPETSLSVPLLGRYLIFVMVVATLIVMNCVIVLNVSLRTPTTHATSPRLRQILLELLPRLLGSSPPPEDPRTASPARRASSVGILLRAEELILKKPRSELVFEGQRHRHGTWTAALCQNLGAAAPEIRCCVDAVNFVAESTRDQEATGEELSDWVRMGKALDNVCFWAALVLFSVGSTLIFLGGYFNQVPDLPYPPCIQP
# Protocols differ between the studies behind these lines. “And” joins repeats or separate records; there may be more than shown. Numbers after ± are the reported error.
# Enoyl-[acyl-carrier-protein] reductase [NADH]: Enoyl-[acyl-carrier-protein] reductase [NADH] (Francisella tularensis subsp. tularensis, UniProt Q5NGQ3)
# Cacna1b with α2δ, β3 subunits: Voltage-dependent N-type calcium channel subunit alpha-1B, with α2δ, β3 subunits (Cacna1b, Rattus norvegicus, UniProt Q02294)
Compound,target,assay,system,conditions,IC50
COc1cc(Cn2cnc3cc(C)c(C)cc32)c(Br)cc1Cl,Enoyl-[acyl-carrier-protein] reductase [NADH],,,,> 100 µM
O=C(O)COCCN1CCN(C(c2ccccc2)c2ccc(Cl)cc2)CC1 (stereo not shown),"Replicase polyprotein 1ab, nsp14 (rep, Severe acute respiratory syndrome-related coronavirus, UniProt P0C6X7)","enzyme activity, inhibitor",,,no inhibition
"Cc1ccc(NC2CNC2)cc1C(=O)N[C@H](C)c1cccc(-c2ccc(CN[C@H]3CC[C@@H](O)C3)s2)c1 (single isomer, unassigned)","Replicase polyprotein 1ab, papain-like protease (rep, Middle East respiratory syndrome-related coronavirus, UniProt K9N7C7)",enzyme activity,,,> 100 µM
CC[C@H](C)[C@H](NC(=O)[C@H](C)NC(=O)[C@H](CCC(=O)O)NC(=O)[C@H](CCC(=O)O)NC(=O)[C@H](CC(C)C)NC(=O)[C@H](CCCCN)NC(=O)[C@H](CCCCN)NC(=O)[C@H](CCSC)NC(=O)[C@H](CCC(=O)O)NC(=O)[C@H](Cc1ccc(O)cc1)NC(=O)[C@H](CCC(=O)O)NC(=O)[C@H](CC(C)C)NC(=O)[C@H](CC(=O)O)NC(=O)[C@H](CC(C)C)NC(=O)[C@H](Cc1ccccc1)NC(=O)[C@@H](NC(=O)[C@@H](NC(=O)[C@H](CC(N)=O)NC(=O)[C@@H](NC(=O)[C@H](CCC(N)=O)NC(=O)[C@H](CC(=O)O)NC(=O)[C@H](CC(C)C)NC(=O)[C@@H](N)CO)[C@@H](C)CC)C(C)C)[C@@H](C)O)C(=O)N[C@@H](CCCCN)C(=O)N[C@@H](CCCCN)C(=O)N[C@@H](CC(C)C)C(=O)N[C@@H](CCC(=O)O)C(=O)N[C@@H](CCC(=O)O)C(=O)N[C@H](C(=O)N[C@@H](Cc1ccc(O)cc1)C(=O)N[C@H](C(=O)N[C@@H](CC(=O)O)C(=O)N[C@@H](CC(C)C)C(=O)N[C@@H](CCCCN)C(=O)N[C@@H](CCC(=O)O)C(=O)N[C@@H](CC(C)C)C(=O)O)[C@@H](C)CC)[C@@H](C)O,"Spike glycoprotein (MERS-CoV, UniProt K9N5Q8)","cell-cell fusion, inhibitor, luciferase fusion","293T donor, Huh-7 target","16 h, 37 °C",1.8 µM
CNc1ccc2c(n1)sc1c(N3CCNCC3)nc(NC)nc12,"Beta-glucuronidase (bglR, Clostridium perfringens, UniProt Q8XP19)","enzyme activity, inhibitor",,,0.0505 ± 0.0004 µM
CC[C@H](C)[C@H](NC(=O)[C@H](C)NC(=O)[C@H](CCC(=O)O)NC(=O)[C@H](CCC(=O)O)NC(=O)[C@H](CC(C)C)NC(=O)[C@H](CCCCN)NC(=O)[C@H](CCCCN)NC(=O)[C@H](CCSC)NC(=O)[C@H](CCC(=O)O)NC(=O)[C@H](Cc1ccc(O)cc1)NC(=O)[C@H](CCC(=O)O)NC(=O)[C@H](CC(C)C)NC(=O)[C@H](CC(=O)O)NC(=O)[C@H](CC(C)C)NC(=O)[C@H](Cc1ccccc1)NC(=O)[C@H](Cc1ccccc1)NC(=O)[C@@H](NC(=O)[C@H](CC(N)=O)NC(=O)[C@@H](NC(=O)[C@H](CCC(N)=O)NC(=O)[C@H](CC(=O)O)NC(=O)[C@H](CC(C)C)NC(=O)[C@@H](N)CO)[C@@H](C)CC)C(C)C)C(=O)N[C@@H](CCCCN)C(=O)N[C@@H](CCCCN)C(=O)N[C@@H](CC(C)C)C(=O)N[C@@H](CCC(=O)O)C(=O)N[C@@H](CCC(=O)O)C(=O)N[C@H](C(=O)N[C@@H](Cc1ccc(O)cc1)C(=O)N[C@H](C(=O)N[C@@H](CC(=O)O)C(=O)N[C@@H](CC(C)C)C(=O)N[C@@H](CCCCN)C(=O)N[C@@H](CCC(=O)O)C(=O)N[C@@H](CC(C)C)C(=O)O)[C@@H](C)CC)[C@@H](C)O,"Spike glycoprotein (MERS-CoV, UniProt K9N5Q8)","cell-cell fusion, inhibitor, luciferase fusion","293T donor, Huh-7 target","16 h, 37 °C, dual mutations",3.54 µM
C[C@@H](O)[C@@H]1NC(=O)[C@@H]2CSSC[C@H](N)C(=O)N[C@@H](CCCCN)C(=O)N[C@@H](CCCNC(=N)N)C(=O)N[C@@H](CCCCN)C(=O)NCC(=O)N[C@@H](CO)C(=O)N[C@@H](CO)C(=O)N[C@H]3CSSC[C@H](NC(=O)[C@H](CO)NC(=O)CNC1=O)C(=O)N[C@@H](CCCNC(=N)N)C(=O)N[C@@H](CO)C(=O)NCC(=O)N[C@@H](CCCCN)C(=O)N[C@H](C(N)=O)CSSC[C@H](NC(=O)[C@H](CC(=O)O)NC(=O)[C@H](Cc1ccc(O)cc1)NC(=O)[C@H](CO)NC(=O)[C@H]([C@@H](C)O)NC(=O)[C@H](CCCNC(=N)N)NC(=O)[C@H](CCCNC(=N)N)NC3=O)C(=O)N2,"Cacna1b with α2δ, β3 subunits","Ba2+ current, inhibitor, whole-cell patch clamp",HEK293 expressing α2δ and β3,"22 °C, added: Ba2+ 20 mM",0.095 µM
CC[C@H](C)[C@H](NC(=O)[C@H](C)NC(=O)[C@H](CCC(=O)O)NC(=O)[C@H](CCC(=O)O)NC(=O)[C@H](CC(C)C)NC(=O)[C@H](CCCCN)NC(=O)[C@H](CCCCN)NC(=O)[C@H](CCSC)NC(=O)[C@H](CCC(=O)O)NC(=O)[C@H](Cc1ccc(O)cc1)NC(=O)[C@H](CCC(=O)O)NC(=O)[C@H](CC(C)C)NC(=O)[C@H](CC(=O)O)NC(=O)[C@H](CC(C)C)NC(=O)[C@H](Cc1ccccc1)NC(=O)[C@H](Cc1ccccc1)NC(=O)[C@@H](NC(=O)[C@H](CC(N)=O)NC(=O)[C@@H](NC(=O)[C@H](CCC(N)=O)NC(=O)[C@H](CC(=O)O)NC(=O)[C@H](CC(C)C)NC(=O)[C@@H](N)CO)[C@@H](C)CC)C(C)C)C(=O)N[C@@H](CCCCN)C(=O)N[C@@H](CCCCN)C(=O)N[C@@H](CC(C)C)C(=O)N[C@@H](CCC(=O)O)C(=O)N[C@@H](CCC(=O)O)C(=O)N[C@@H](C)C(=O)N[C@@H](Cc1ccc(O)cc1)C(=O)N[C@H](C(=O)N[C@@H](CC(=O)O)C(=O)N[C@@H](CC(C)C)C(=O)N[C@@H](CCCCN)C(=O)N[C@@H](CCC(=O)O)C(=O)N[C@@H](CC(C)C)C(=O)O)[C@@H](C)CC,"Spike glycoprotein (Severe acute respiratory syndrome coronavirus, UniProt P59594)","cell-cell fusion, inhibitor, luciferase fusion","293T donor, Huh-7 target","16 h, 37 °C, dual mutations",0.0109 µM
O=C(NCc1ccccc1)C1C(=O)N(O)C(=O)c2cc([N+](=O)[O-])ccc21 (stereo not shown),"Nucleoprotein, exonuclease domain (N, Lymphocytic choriomeningitis virus, UniProt P09992)","exonuclease activity, inhibitor",,,16.8 ± 1 µM
C[C@@H](O)[C@@H]1NC(=O)[C@@H]2CSSC[C@H](N)C(=O)N[C@@H](CCCCN)C(=O)NCC(=O)N[C@@H](CCCCN)C(=O)NCC(=O)N[C@@H](CO)C(=O)N[C@@H](CO)C(=O)N[C@H]3CSSC[C@H](NC(=O)[C@H](CO)NC(=O)CNC1=O)C(=O)N[C@@H](CCCNC(=N)N)C(=O)N[C@@H](CC(N)=O)C(=O)NCC(=O)N[C@@H](CCCCN)C(=O)N[C@H](C(N)=O)CSSC[C@H](NC(=O)[C@H](CC(=O)O)NC(=O)[C@H](Cc1ccc(O)cc1)NC(=O)[C@H](CO)NC(=O)[C@H]([C@@H](C)O)NC(=O)[C@H](CCCNC(=N)N)NC(=O)[C@H](CCCNC(=N)N)NC3=O)C(=O)N2,"Cacna1b with α2δ, β3 subunits","Ba2+ current, inhibitor, whole-cell patch clamp",HEK293 expressing α2δ and β3,"22 °C, added: Ba2+ 20 mM",0.129 µM
CC[C@H](C)[C@@H]1NC(=O)[C@@H]2CSSC[C@H](NC(=O)[C@H](CCCNC(=N)N)NC(=O)[C@@H]3CSSC[C@H](NC1=O)C(=O)N[C@@H]([C@@H](C)O)C(=O)N[C@@H](CCCNC(=N)N)C(=O)NCC(=O)N[C@@H](Cc1ccccc1)C(=O)N3)C(=O)N[C@@H](CC(C)C)C(=O)N[C@H]1CSSC[C@H](NC(=O)[C@H](C(C)C)NC(=O)CNC(=O)[C@H](CCCNC(=N)N)NC(=O)[C@H](CCCNC(=N)N)NC1=O)C(=O)N[C@@H](CCCNC(=N)N)C(=O)N2,"Lethal factor (Bacillus anthracis, UniProt P15917)","enzyme activity, inhibitor, FRET substrate",,pH 7.2,0.406 ± 0.022 µM
CC[C@H](C)[C@@H]1NC(=O)[C@H](CC(=O)O)NC(=O)[C@@H]2CCCN2C(=O)[C@H](CC(N)=O)NC(=O)[C@H](CCC(N)=O)NC(=O)[C@H](CC(C)C)NC(=O)[C@H]([C@@H](C)CC)NC(=O)[C@@H]2CSSC[C@H](NC(=O)[C@@H](N)CC(=O)O)C(=O)N[C@@H](CSSC[C@@H](C(N)=O)NC1=O)C(=O)N[C@@H](CO)C(=O)N[C@@H](C)C(=O)N1CCC[C@H]1C(=O)N1CCC[C@H]1C(=O)N2,"Nicotinic acetylcholine receptor alpha1/beta1/epsilon/delta (Mus musculus, UniProt P02716+P04756+P09690+P20782)","ACh-evoked current, antagonist, two-electrode voltage clamp",Xenopus oocytes,"mouse receptor, added: acetylcholine 10 µM",> 10 µM
CS(=O)(=O)C=CCNC(=O)c1ccc2[nH]c(=O)n(C3CC3)c2c1,"Polyprotein P1234, nsP2 protease (Chikungunya virus, UniProt Q5XXP4)",FRET,,"90 min, 30 min preincubation",< 1.5 µM and 1.2 µM
CC[C@H](C)[C@H](NC(=O)[C@H](C)NC(=O)[C@H](CCC(=O)O)NC(=O)[C@H](CCC(=O)O)NC(=O)[C@H](CC(C)C)NC(=O)[C@H](CCCCN)NC(=O)[C@H](CCCCN)NC(=O)[C@H](CCSC)NC(=O)[C@H](CCC(=O)O)NC(=O)[C@H](Cc1ccc(O)cc1)NC(=O)[C@H](CCC(=O)O)NC(=O)[C@H](CC(C)C)NC(=O)[C@H](CC(=O)O)NC(=O)[C@H](CC(C)C)NC(=O)[C@H](Cc1ccccc1)NC(=O)[C@H](Cc1ccc(O)cc1)NC(=O)[C@@H](NC(=O)[C@H](CC(N)=O)NC(=O)[C@@H](NC(=O)[C@H](CCC(N)=O)NC(=O)[C@H](CC(=O)O)NC(=O)[C@H](CC(C)C)NC(=O)[C@@H](N)CO)[C@@H](C)CC)C(C)C)C(=O)N[C@@H](CCCCN)C(=O)N[C@@H](CCCCN)C(=O)N[C@@H](CC(C)C)C(=O)N[C@@H](CCC(=O)O)C(=O)N[C@@H](CCC(=O)O)C(=O)N[C@@H](C)C(=O)N[C@@H](Cc1ccc(O)cc1)C(=O)N[C@H](C(=O)N[C@@H](CC(=O)O)C(=O)N[C@@H](CC(C)C)C(=O)N[C@@H](CCCCN)C(=O)N[C@@H](CCC(=O)O)C(=O)N[C@@H](CC(C)C)C(=O)O)[C@@H](C)CC,"Spike glycoprotein (MERS-CoV, UniProt K9N5Q8)","cell-cell fusion, inhibitor, luciferase fusion","293T donor, Huh-7 target","16 h, 37 °C, dual mutations",2.03 µM
Nc1nc2ccccc2n1Cc1ccc(Cl)cc1,Enoyl-[acyl-carrier-protein] reductase [NADH],,,,> 100 µM
O=C(Nc1scc(-c2cccs2)c1C(=O)O)c1ccc(Br)cc1,"Replicase polyprotein 1ab, papain-like protease (rep, Severe acute respiratory syndrome-related coronavirus, UniProt P0C6X7)","PLpro protease activity, inhibitor",,added: Z-RLRGG-AMC 40 µM,156 µM

# Some of these lines once more:
Compound,target,assay,system,conditions,IC50
CC[C@H](C)[C@H](NC(=O)[C@H](C)NC(=O)[C@H](CCC(=O)O)NC(=O)[C@H](CCC(=O)O)NC(=O)[C@H](CC(C)C)NC(=O)[C@H](CCCCN)NC(=O)[C@H](CCCCN)NC(=O)[C@H](CCSC)NC(=O)[C@H](CCC(=O)O)NC(=O)[C@H](Cc1ccc(O)cc1)NC(=O)[C@H](CCC(=O)O)NC(=O)[C@H](CC(C)C)NC(=O)[C@H](CC(=O)O)NC(=O)[C@H](CC(C)C)NC(=O)[C@H](Cc1ccccc1)NC(=O)[C@H](Cc1ccc(O)cc1)NC(=O)[C@@H](NC(=O)[C@H](CC(N)=O)NC(=O)[C@@H](NC(=O)[C@H](CCC(N)=O)NC(=O)[C@H](CC(=O)O)NC(=O)[C@H](CC(C)C)NC(=O)[C@@H](N)CO)[C@@H](C)CC)C(C)C)C(=O)N[C@@H](CCCCN)C(=O)N[C@@H](CCCCN)C(=O)N[C@@H](CC(C)C)C(=O)N[C@@H](CCC(=O)O)C(=O)N[C@@H](CCC(=O)O)C(=O)N[C@@H](C)C(=O)N[C@@H](Cc1ccc(O)cc1)C(=O)N[C@H](C(=O)N[C@@H](CC(=O)O)C(=O)N[C@@H](CC(C)C)C(=O)N[C@@H](CCCCN)C(=O)N[C@@H](CCC(=O)O)C(=O)N[C@@H](CC(C)C)C(=O)O)[C@@H](C)CC,"Spike glycoprotein (MERS-CoV, UniProt K9N5Q8)","cell-cell fusion, inhibitor, luciferase fusion","293T donor, Huh-7 target","16 h, 37 °C, dual mutations",2.03 µM
